# Assay results gathered from unrelated publications.
# Each numbered part is a random draw from the data of one study; scales do not carry over between parts.

# Sample 1
# Target: Histone acetyltransferase KAT6A, both winged helices, GST fusion (KAT6A, Homo sapiens, UniProt Q92794, residues 1-181)
# Technique: protein binding microarray
# Form: double-stranded DNA, one strand shown
# Sample: in vitro
# Concentration: not given
# Notes: 8-mer, flanks averaged, mean of 2 arrays, mostly near background
# Relative to: not given
# Direction: higher = stronger binding
# Target sequence (chain): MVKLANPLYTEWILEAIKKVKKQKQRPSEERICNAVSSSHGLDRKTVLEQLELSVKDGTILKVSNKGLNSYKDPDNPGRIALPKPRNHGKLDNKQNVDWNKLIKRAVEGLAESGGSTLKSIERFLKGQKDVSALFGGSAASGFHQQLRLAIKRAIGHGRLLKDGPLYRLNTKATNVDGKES
Oligonucleotide,E-score
AATTGCTA,-0.0414
GCTCAAAC,0.106
CAATCCCC,-0.106
AATAACTC,-0.137
CCCAGACA,-0.231
GAAACCGC,0.246
ACGCAGAG,-0.092
ATGAATCG,0.0109
AAACCTGA,-0.0971
GGGGTTCA,-0.0958
ATTCACGG,0.184
CGCCACGC,0.24
ACCTGAAT,-0.0595
ATGGAAAT,-0.159
ATTAGTTA,-0.0632
ATGACTCA,-0.0395
ATTCTAGA,-0.183
CCGTCGGA,0.325
CCGGACCC,0.105
ATTTTGGC,0.0479
GAGTATCA,-0.0877
AAGCTTCG,-0.125
AGCAAATC,-0.06
ACAACTGC,0.0393
CAATCAAA,-0.0537

# Sample 2
# Target: Prothrombin, mature alpha-thrombin (F2, Homo sapiens, UniProt P00734)
# Technique: aptamer microarray, sandwich
# Form: DNA with 2'F-ANA
# Sample: in vitro
# Concentration: 200 nM
# Notes: whole 15-mer aptamer, many near background
# Together with: Cy3 exosite-II aptamer, 400 nM
# Direction: higher = stronger binding
# Oligonucleotide: GGTTGGTGTGGTTGG
Modification,mean fluorescence intensity [a.u.]
2'F-ANA at 1 2 3 5 6 7 8 9 10 12 13 14,49.3
2'F-ANA at 1 2 3 6 9 10 11,59.6
2'F-ANA at 5 8 9 10 15,47.4
2'F-ANA at 4 9 11 13 15,173
2'F-ANA at 2 6 8 11 12,568
2'F-ANA at 2 6 7 10 11 13,119
2'F-ANA at 2 4 6 9 11 13 14 15,66.3
2'F-ANA at 1 2 3 5 6 7 8 10 11 12 13 14,54.9
2'F-ANA at 1 2 3 5 8 9 10 11 12 15,77.9
2'F-ANA at 1 2 6 9 13,107
2'F-ANA at 5 6 10 11 12 14,44.8
2'F-ANA at 6 8 9 10 13 14 15,98.7
2'F-ANA at 2 3 4 5 7 11 12,159
2'F-ANA at 1 4 7 13,106
2'F-ANA at 6 7 8 9 12 14,270
2'F-ANA at 2 3 4 6 8 10 14,164
2'F-ANA at 1 3 5 6 7 9,64
2'F-ANA at 1 5 6 8 10 11 12 14,53

# Sample 3
# Target: RNA binding protein fox-1 homolog 2, RRM domain, GST-SBP tag (RBFOX2, Homo sapiens, UniProt O43251-10, residues 100-194)
# Technique: RNA Bind-n-Seq
# Form: RNA
# Sample: in vitro
# Concentration: 365 nM
# Notes: natural RNA segment, single round, ends assumed
# Relative to: no-protein control
# Direction: higher = stronger binding
# All sequences stand within: GGGAGUUCUACAGUCCGACGAUC … UGGAAUUCUCGGGUGCCAA
# Residues (chain): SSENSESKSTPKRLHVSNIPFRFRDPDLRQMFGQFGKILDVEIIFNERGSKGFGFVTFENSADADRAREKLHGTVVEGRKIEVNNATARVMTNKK
Oligonucleotide,RBNS enrichment (R)
CACCAAACUUAAAUAGCAGGAGGAGACUGGCAGGUGAGUGUGUCCAAGAAAUCCACAUUUGUGCUGCAGAUACUGGAAACCAAACUGCAGCUGCAGCCAUUGGAAGAAAC,0.356
UCGUCAGUGGCCAGCCUCCCCUCAGAGAGUUCCGUUGGUAGAUACGCUGCUCAUGUCCCCUCUCCCUCCAUCUGAGAAGCAGAAGCGGCCAGUGUGCCUCAAGGCCCAGG,0.183
UUGCUGGUGGGGUCCCCCCUGGUAUCCUCCCCACCCUGACACUUCAAGUCUGCGAGGCUAGGCACUUCCUCUCCCACGAAGGCCAGACAAGAAGGCCCAGCUAGAAGAAC,0.413
UGCAUCUCUCUUCAUUUAAAAAGGAUACACAAUUCUUUCCUCAUUGCAUAUUACACCAAACGUUUGAGGGAAAAAUCCUCAUUCGUAAAGGAUUUUGGAUGUAUAAUCUA,0.715
UCAGUCCCACUUGGUUUCUGAGUGCCUCUUUUCUCUUCUGUGUCUUCUCUUCCCUUGUCCUUCCUCCUUGGCUCUUCUGUCCUUUCCUUCCCUGUGCAGACAGGACUAUG,0.445
ACAUGUCACACAAGAGGCCAUGCAUGUUUAACCUAAGCCCUCAAGGGGGCCUGAGGACAGCCUUUUCCUCAGUCCUUGAGAUCAUUGCUCAUCCGUGCCAAACUGGGUAG,7.56
AAAAGAGACAAGCUCUGAGGGCAAAACCCAUACAAAUUUGGAGCAAAUAAAAGCCCAGGUCUGAGAUGUUCACACAAGCAAUUUCUCUGCACUGCUGUGUGGGCCGUGCA,0.664
UUCAUUCUGUGGAAUUUUGUGCUUGCUACUGUAUAGUGCAUGUGGUGUAGGUUACUCUAACUGGUUUUGUCGACGUAAACAUUUAAAGUGUUAUAUUUUUUAUAAAAAUG,3.56
UAAGACACCUUGUAGUAUUUUGGGAGCAAAAAAAUUAUUUUCUCUUAACAAGACUUUUUGUACUGAAAACAAUUUUUUUGAAUCUUUCGUAGCCUAAAAGACAAUUUUCC,0.543
UUAUGUGUGAGCUAGAAUCUAGGGUAGCUGUCCACUUCUUUUUCUGUUGUCCUGACAGUAAAGCAAAUAGUAAGCCAUGUCUUGAAAGUGAUUUGCUUGUUUCAUACUGA,1.64
CCUGGCCCAUUCUGAGAAAUGGAGCUGUAGCUAUGGCCUAGCCAGCACCCCCAGUGCUCGCUCAUGGGAAAUAUCAGCCCUAGGCUGGUUGUUUUUACAAAUCUCUCUCA,0.229
CCUCCAUCUAAAGGCAACAUUCCUUACCCAUUAGUCUCAGAAAUUGUCUUAAGCAACAGCCCCAAAUGCUGGCUGCCCCCAGCCAAGCAUUGGGGCCGCCAUCCUGCCUG,0.228

# Sample 4
# Target: Hepatocyte nuclear factor 3-alpha (Foxa1, Mus musculus, UniProt P35582, residues 1-468, full length assumed)
# Technique: EMSA with sequencing
# Form: double-stranded DNA, one strand shown
# Sample: in vitro
# Concentration: 10 and 20 nM
# Notes: whole designed probe, mean of two concentrations, ends assumed
# Relative to: negative control set to 0
# Direction: higher = stronger binding
# All sequences stand within: GTGAGCGGTGCCCATTGATGGGGAAC … TTTCACTGGGATCGTGGGGAC
# Construct (chain): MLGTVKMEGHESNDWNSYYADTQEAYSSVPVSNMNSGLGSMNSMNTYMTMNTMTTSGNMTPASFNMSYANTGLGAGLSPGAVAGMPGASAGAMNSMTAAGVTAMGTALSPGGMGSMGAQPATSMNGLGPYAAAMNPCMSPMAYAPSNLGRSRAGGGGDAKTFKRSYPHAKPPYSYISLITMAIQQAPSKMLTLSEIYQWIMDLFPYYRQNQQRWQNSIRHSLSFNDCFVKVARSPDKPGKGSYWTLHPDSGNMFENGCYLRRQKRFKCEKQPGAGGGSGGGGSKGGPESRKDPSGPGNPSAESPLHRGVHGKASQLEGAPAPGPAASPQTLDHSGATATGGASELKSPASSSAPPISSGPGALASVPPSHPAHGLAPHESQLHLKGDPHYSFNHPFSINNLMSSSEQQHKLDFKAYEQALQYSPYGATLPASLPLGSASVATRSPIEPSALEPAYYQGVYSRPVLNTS
Oligonucleotide,normalised bound fraction [ratio]
GCAATAGCAAAAGTAAGGCAGGGAAGTACAAATTCAATAGCAAACAAATAGTGGTATGGCCATGTCACAATACCCTGCGGCCATTTCAAGTGATGTTTACAAAGTTTGTAGGCAGACAGTCACCTCGTATTTACAAAGCTCCGACTGTGCGGGGCGCTGGGTTGGGCACGGAGCAGATAGGGCCAGAAGGCCA,0.394
ATCTTCCCCCTCTTCCTTGCCCCACCAGCTCACCTACGGGGGTTATTTGCACAAAGGAAAATAAATAAAGCCGGCATTCGTTAACGCAGTTCACGCGCATACTGCTGTTTGCTCTGCATCTAACATGGTCCTTACGCGAGGCGTGGCTCCGGGAGAGCAAAGCACCGTGTCAGGCGCATGATCCGGGGTGGCC,0.4
CCCAGTGCAAAGTCCTTGGGTTAGGTCACGGAAAAAAATAAATAGTCCAGGAGATGTTTTTATCTCCTTAGTCAGAAAACCTGAGCTGAAATGCAAACAAGTCCTCAAAGGATCAGAGGTAAATACCAGTCACTCAGTAAATACTGTTGGCTAATTCCTTAATATTACTTTACAGTAAAAGCAAACGATGGAA,0.409
AATACATTTCCTATCATCAATATATAGATTAGACAGATAATTTTCAATATTTGCAGAATGTTTCATTCAATTGTGATCCATAGTTTATATACCCTGTTTACATTGAGTTTATTTTAAGAGAGGGAATAATTGAATTTTTTTGAGAAATATTAAGAATGGGAGACAAAGGGAAAATTGGAAATTCAAGGGCTCA,0.252
CTTTAAGGATTTCAATGTTATAAATAAAAGCTAAGTCCACTGTCATTCATTTTTTATGTCCTACAACAAGGTTACAAAATTAAAATCATATAAAGTAATCTTGAAGAGGAAAAGCTTGATCTACTCAATGCATCCACTTCTTCCCAGTTCTCCCCATCCTCTGCCAAGTTGTACCAGGGAGAGTGAAGGAGAA,-0.068
CAAGTTTGTGGTCCAGGAGCAACAGGTTATGCCATACAGCCTAGGTGTGTAGTAGGCTACACACCGTCTATGTTTGTGTTGTACACTCTACAATGTTTGCACAATGATGAAATCTTCTCACCATGACTCATGAACATACCCCTGTTGTTAAGCGATACATGACTGTACTTTTTTTAAAAAGTCCAAGGATATA,0.413
AGTGGCAGGTTCCCTGCTGGGATTTAGCTGGAGAACAAAGTAAGTTTGCATAATGAGTGTGAGAGCTGTAAAGAATAAACTGTGAAGTGCTGTGCAAATATTAGCTCTCCTGTCTCTTCCAGCTCTGGCCTTCCCTTAACAGTGTGGCTGAAAGCCCTTTGTCTGAGGACAAGGACAGATAAGCTAGTTAGAG,0.382
GTGGGCAAAAATGCGAGTTCCGTTCATTGCCTATGACTCACATCTAATGTATGTTTAAAAGATGGGTCAGGGAAAATGTCAAGTGCCAAGCTGTGTTTATTTTGCAATAAAATAAAGGGACATAAGTAGGAAATGAATAGAACAACTACACCTAAGAACTCCTCAAATATTTGAAAAACGGCCGCAATCTGTG,0.294

# A few entries again (sample 1):
Oligonucleotide,E-score
ACGCAGAG,-0.092
ATGAATCG,0.0109
AAACCTGA,-0.0971
GGGGTTCA,-0.0958
ATTCACGG,0.184
CGCCACGC,0.24
ACCTGAAT,-0.0595
ATGGAAAT,-0.159
